Experimental data pooled from the literature.
Numbered parts are unrelated; each lists some results of a single study. Changes are numbered by the printed parent chain.

Sample 1
Target: Histone acetyltransferase KAT6A, winged helix 1, GST fusion (KAT6A, Homo sapiens, UniProt Q92794, residues 1-85)
Technique: protein binding microarray
Form: double-stranded DNA, one strand shown
Medium: in vitro
Concentration: not given
Setting: 8-mer, flanks averaged, mean of 2 arrays, mostly near background
Baseline: not given
Reading: higher = stronger binding
Quantity: E-score
Residues (chain): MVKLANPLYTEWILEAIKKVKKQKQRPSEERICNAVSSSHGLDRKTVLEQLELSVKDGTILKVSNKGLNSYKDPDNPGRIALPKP
TACCGATA: 0.00386
TCAAGCCA: -0.12
ACAAACTG: -0.188
GCACCACC: 0.0371
CCACCTGG: -0.243
AACTCATG: -0.116
AGCTGAGC: -0.0271
GTGAGACA: -0.101
CCCCGGAA: 0.0611
CTCGTCAC: -0.11
AAATTGAC: -0.115
ATATTCTA: -0.191
AAAATGGC: 0.0653
CTCTAGGA: -0.0481
GCATGCGC: 0.404
TACGGTCA: 0.208
AGTTTGAC: -0.0443
AGCACGTG: -0.0864
AGACCGTC: 0.203
ATGAAAAC: 0.0151
AGGTATGG: -0.0179
CGGAGCAA: 0.03
TCTAAACA: -0.0727
ATCGGAAT: -0.0283
CTCTTGAC: -0.0596

Sample 2
Target: RING finger protein unkempt homolog, zinc fingers 1-6, GST-SBP tag (UNK, Homo sapiens, UniProt Q9C0B0, residues 30-357)
Technique: RNA Bind-n-Seq
Form: RNA
Medium: in vitro
Concentration: not given
Setting: RNA with constant flanks, human-mouse chimeric sites, ends assumed
Baseline: input RNA pool
Reading: higher = stronger binding
Quantity: bound/input enrichment
Shared flanks, not repeated: GGGAGUUCUACAGUCCGACGAUC … CAACAGAGGAUUGAGCAUCA
Residues (chain): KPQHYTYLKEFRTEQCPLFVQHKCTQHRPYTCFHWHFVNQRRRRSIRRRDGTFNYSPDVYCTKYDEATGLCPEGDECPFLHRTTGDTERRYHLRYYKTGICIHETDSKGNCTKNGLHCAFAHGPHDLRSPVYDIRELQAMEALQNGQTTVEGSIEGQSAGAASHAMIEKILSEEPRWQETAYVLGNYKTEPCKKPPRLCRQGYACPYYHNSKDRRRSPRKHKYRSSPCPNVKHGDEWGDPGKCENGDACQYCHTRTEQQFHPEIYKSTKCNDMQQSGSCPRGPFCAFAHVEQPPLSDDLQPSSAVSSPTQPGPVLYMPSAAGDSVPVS
CACACACUCUUCUGCGGGACCCUCAUCCUGCAGGCCCGGGCCUAUGUGGGACCGCACGUCCUGGCAGUGGUGACCCGCACAGGGUUCUGCACGGCAAAAGGGGGCCUGGUGAGCUCCAUC: 0.0997 ratio
UUGUGCAAUGAUGCUUGAGAUGGUUUUUGCAAAAGCAGAAAUCGCUGCAAGGUCAUUACAAUAGAUAAAAGUGGUAUUUUAAACCUUUGAAAUAAAUGGAUGUAACUGUACCUUGGUACA: 0.414 ratio
UACUACUGAAUCUGUGAUAUUGGAAAUUAUUAUUAUGGCCAGGGUCAUCCCAUGAAGCCUCAUAGAAUCCGGAUGACUCAUAACUUGCUGCUAAAUUAUGGUUUAUACCGAAAAAUGGAA: 0.333 ratio
GGAAGCACAAUGAUGGAGAUUGAUGGUGACAAAGGCAAGCAGGGCGGGCCCACCUACUACAUAGACACCAAUGCCCUCCGCGUGCCCAGGGAGAACAUGGAGGCCAUCUCACCACUCAAG: 0.199 ratio
AUUGUUGAAGCUAACCCACUUUUAGAAGCCUUUGGAAAUGCAAAGACUGUUCGCAACAAUAAUAGCAGUCGAUUUGGAAAAUUUGUAGAAAUUCAUUUCAAUGAAAAGAGUUCGGUUGUU: 0.589 ratio
GACUUGGGACCGUCCUGGGCUAGUACAAAUAGCGGCAGUGGAGGCUCGAGAGGAAAGUUUGUUAGUGGAGGCAGUGGUAGAGGCCGUCAUGUACGGUCUUUACACGAAUAGAUGUGUUCU: 0.759 ratio
GAUCUCGGGCCCUCCCCAGGGGCCUCCUUUCGUAUAGUCACUGCUUCUGCAUCAGAUAUUUUUAGCUGCAACUCCCUACUGGGUGGGGCACCCAUUUCAGGCAGAAGGUUUUGGUACCCU: 0.334 ratio
GUAGCUGGGACUACAGAAAUGCUGGUAAUUUCAGUCAGUGAGUCGUGACUUCUGAUGUCCCAGCAAAUGUUGGCAUUGUUGACUGCUGAGAAGAUACUUCUGAGGACAUACAGCAGUGGU: 0.103 ratio

Sample 3
Target: Sal-like protein 4, full length isoform B (SALL4, Homo sapiens, UniProt Q9UJQ4-2, residues 1-616)
Technique: universal PBM
Form: double-stranded DNA, one strand shown
Medium: in vitro
Concentration: not given
Setting: 8-mer, flanks averaged, mean of replicates
Reading: higher = stronger binding
Quantity: E-score
Residues (chain): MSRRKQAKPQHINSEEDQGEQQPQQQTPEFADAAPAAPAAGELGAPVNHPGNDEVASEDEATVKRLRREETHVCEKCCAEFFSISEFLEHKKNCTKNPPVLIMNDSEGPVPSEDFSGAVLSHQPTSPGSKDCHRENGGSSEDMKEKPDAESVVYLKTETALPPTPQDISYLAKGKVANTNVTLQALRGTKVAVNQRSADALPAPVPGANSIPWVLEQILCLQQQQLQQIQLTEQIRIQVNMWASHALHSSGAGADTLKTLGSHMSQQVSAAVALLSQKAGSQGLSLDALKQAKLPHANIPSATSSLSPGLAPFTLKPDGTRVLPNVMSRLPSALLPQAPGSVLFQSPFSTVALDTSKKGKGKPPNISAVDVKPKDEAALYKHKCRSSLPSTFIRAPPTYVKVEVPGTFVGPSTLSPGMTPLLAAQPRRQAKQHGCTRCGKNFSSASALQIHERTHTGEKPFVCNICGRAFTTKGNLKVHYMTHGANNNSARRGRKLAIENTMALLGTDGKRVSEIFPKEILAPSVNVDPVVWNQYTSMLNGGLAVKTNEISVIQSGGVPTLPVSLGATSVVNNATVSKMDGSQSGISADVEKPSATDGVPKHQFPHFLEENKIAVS
ACTTGTTA: 0.123
CTAGAGCC: -0.157
ATAGGACC: -0.105
ACAAGCGT: -0.0268
ATAGGCGC: 0.0619
ACGGGGGG: -0.294
GGCGACAA: -0.197
AGGGAAAT: 0.0566
CTCGTTGA: -0.043
CAAAAGGC: -0.224
CTCGCGAA: -0.136
CCTACCAC: -0.294
ATGCGGAC: -0.188
CATGCGGC: -0.119
AGGCTAGG: -0.215
CGCAAGGC: -0.169
ATCGTAGC: 0.114
CTTGTTCA: 0.0948
AAGCAGCC: -0.125
CATTTCGA: 0.0969
GGTCGACA: -0.0521
CCGGAAGG: -0.252

Sample 4
Target: CCNE1, cyclin fold, Cln2 fusion (human)
Technique: yeast growth competition, sequencing
Medium: yeast
Setting: strong parent motif
Baseline: not given
Reading: higher = stronger binding
Quantity: normalised enrichment score
Starting sequence: RBL1 docking peptide (human); GSAKRRLFGEDPP; partner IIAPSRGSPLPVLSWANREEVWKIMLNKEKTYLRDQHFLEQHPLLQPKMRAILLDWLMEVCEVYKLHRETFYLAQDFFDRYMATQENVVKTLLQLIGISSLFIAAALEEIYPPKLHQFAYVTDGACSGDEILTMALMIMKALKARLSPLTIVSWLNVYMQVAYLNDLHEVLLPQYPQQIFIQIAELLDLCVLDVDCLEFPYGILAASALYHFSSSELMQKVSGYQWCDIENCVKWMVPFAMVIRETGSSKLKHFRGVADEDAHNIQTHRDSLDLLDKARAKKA
GTAKRRLFGEDPP [S2T]: 6.06
GSATRRLFGEDPP [K4T]: 3.58
GSAKRRLFGEDRP [P12R]: 5.68
GSAKHRLFGEDPP [R5H]: 1.16
GSAKRRLFGWDPP [E10W]: 4.05
GSAKRRWFGEDPP [L7W]: 0.614
GSAKRRMFGEDPP [L7M]: 0.999
ESAKRRLFGEDPP [G1E]: 6.35
GSAKPRLFGEDPP [R5P]: 0.446
GSIKRRLFGEDPP [A3I]: 2.29
GSAKRCLFGEDPP [R6C]: 2.95
GSAKRRLFGEEPP [D11E]: 6.28
GSAKRRLFGVDPP [E10V]: 4.3
WSAKRRLFGEDPP [G1W]: 6.43
GSAKWRLFGEDPP [R5W]: -0.296
GSAKRRLFGPDPP [E10P]: 6.56
GSAKRRVFGEDPP [L7V]: 1.02
GSNKRRLFGEDPP [A3N]: -0.156
GSAKRRLFGEDPK [P13K]: 4.82
GSAKRRLFAEDPP [G9A]: 7.89
GSPKRRLFGEDPP [A3P]: 1.82
GSAKRRLFGEDTP [P12T]: 6.72

Sample 5
Target: POU, POU domain (Salpingoeca helianthica)
Technique: Spec-seq
Form: double-stranded DNA, one strand shown
Medium: in vitro
Concentration: not given
Setting: whole probe, mean of replicates
Baseline: not given
Reading: lower = stronger binding
Quantity: relative binding energy
Shared flanks, not repeated: GAGTCGTCTCGTCAGCAC … CCGTAGAGCACTCAGGTC
Construct (chain): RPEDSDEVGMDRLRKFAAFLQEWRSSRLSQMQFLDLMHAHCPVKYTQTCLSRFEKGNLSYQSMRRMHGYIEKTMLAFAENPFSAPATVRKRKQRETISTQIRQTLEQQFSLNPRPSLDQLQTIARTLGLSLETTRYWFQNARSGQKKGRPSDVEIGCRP
TTAGTAAT: 0.147 ln ratio
ATGCACAC: 1.48 ln ratio
ATCCACAT: 1.43 ln ratio
ATGCTCTA: 1.04 ln ratio
TAAGTAAT: 0.144 ln ratio
ATGCCTCC: 1.21 ln ratio
ATGGCAAT: 1.3 ln ratio
CCTCTAAT: 0.746 ln ratio
TTTGTAAT: 0.276 ln ratio
TAGGTAAT: 0.709 ln ratio
ATGCTCCG: 1.42 ln ratio
ATGCACTT: 1.07 ln ratio
ATTTCCAT: 1.26 ln ratio
ATCGGAAT: 1.16 ln ratio
ACTATAAT: 0.272 ln ratio
CCCGTAAT: 0.668 ln ratio
ATGAGAAT: 1.21 ln ratio
ATGTGCAT: 1.16 ln ratio
ATGCCCTC: 1.25 ln ratio
ATGCGATT: 1.18 ln ratio
TGAGTAAT: 0.148 ln ratio
ATGCATAT: 0.878 ln ratio

Some of these lines once more (sample 1):
CCCCGGAA: 0.0611
GTGAGACA: -0.101
CTCTAGGA: -0.0481
AGACCGTC: 0.203
TCTAAACA: -0.0727
AACTCATG: -0.116
